{"data": "Measurements pooled from the literature", "note": "Compare with care: the assays were run in different laboratories. Values joined by “and” are separate records of one study, mostly repeats; a detail may differ. Numbers after ± are the reported error."}
{"SMILES": "CCn1cc(C(=O)N2CCOCC2)c(=O)c2cc(NC3Cc4ccccc4C3)cnc21", "system": "human, GAD, PTSD or social anxiety disorder", "conditions": "dose not given, TEAE Somnolence, pooled phase trials", "quantity": "patients with adverse event", "value": "5.1%"}
{"SMILES": "NC1(C(=O)N[C@@H](CCO)c2ccc(Cl)cc2)CCN(c2nc[nH]c3nccc2-3)CC1", "system": "metastatic CRPC patients", "conditions": "320 mg b.i.d., any grade, treatment-related, together with: enzalutamide 160 mg daily", "quantity": "incidence of Erythema", "value": "33.3%"}
{"SMILES": "O=C1Nc2ccc3ncsc3c2/C1=C/Nc1ccc2c(c1)CS(=O)(=O)C2", "system": "aqueous buffer", "conditions": "pH 7.4", "quantity": "solubility", "value": "< 2.74 µg/mL"}
{"SMILES": "CNC(=O)c1ccc(-c2cnc3ncc(Cc4ccc5ncccc5c4)n3n2)cc1F", "test": "CTCAE v4.0, any causality", "system": "human cancer patients", "conditions": "oral, 600 mg twice daily, expansion, other tumours, RP2D", "quantity": "decreased appetite incidence (all grades)", "value": "22%"}
{"SMILES": "COc1ccc2c(c1)CN(C(=O)CCN1CCC(Cc3ccccc3)CC1)CC[S@@+]2[O-]", "test": "telemetry", "system": "conscious male beagle dogs", "conditions": "intravenous, 4 mg/kg, 24 h", "quantity": "QRS duration", "value": "34 ± 10 ms"}
{"SMILES": "O=C(O)CCCCCCCCCCCCC(=O)O", "system": "human, plasma", "conditions": "control", "quantity": "Cmin", "value": "30 ± 2.6 nM"}
{"SMILES": "Cn1cnc2ccc(Nc3c(F)ccc(NS(=O)(=O)N4CC(F)C4)c3Cl)c(Cl)c2c1=O", "test": "item: headache any grade", "system": "human patients", "conditions": "dose not given, monotherapy trial", "scale": "reference: patients", "quantity": "patients with headache", "value": "5%"}
{"SMILES": "CNCCOC12CC3(C)CC(C)(CC(Cn4ncc(-c5ccc(N6CCc7cccc(C(=O)Nc8nc9ccccc9s8)c7C6)nc5C(=O)O)c4C)(C3)C1)C2", "system": "beagle dog, male, anaesthetised", "conditions": "intravenous bolus, 0.03 mg/kg, 90 min", "scale": "reference: baseline", "quantity": "QRS duration change", "value": "0 ms"}
{"SMILES": "Brc1cccc([C@H]2COC[C@@H](c3cnc(-c4ccccc4)nc3)N2)c1", "test": "shake-flask, LC-HRMS", "system": "aqueous buffer", "conditions": "16 h, pH 6.8", "quantity": "solubility", "value": "< 4 µM"}
{"SMILES": "Cc1cc(NC2CCN(C(=O)OC3CCN(C(=O)/C=C/CN(C)C)C3)CC2)n2ncc(C(C)C)c2n1 (stereo not shown)", "test": "Phase I dose escalation CTCAE v4.0, item: back pain", "system": "patients with advanced solid tumours", "conditions": "dose not given, TIW dosing any grade", "quantity": "patients with adverse event", "value": "0%"}
{"SMILES": "c1ccc(-c2ccc([C@H]3COC[C@@H](C4CCCCC4)N3)cc2)cc1", "test": "shake-flask, LC-HRMS", "system": "aqueous buffer", "conditions": "16 h, pH 6.8", "quantity": "solubility", "value": "< 4 µM"}
{"SMILES": "NCCONC(=O)[C@@H]1CC[C@@H]2CN1C(=O)N2OS(=O)(=O)O", "system": "human, plasma", "conditions": "intravenous infusion, 1 g multiple doses, day 9, phase I", "quantity": "elimination rate constant", "value": "7.28e-05 s⁻¹"}
{"SMILES": "CSc1ccccc1C(=O)NCCn1cc(C(=O)NCc2cccc(C)n2)c(=O)c2cc3c(cc21)OC(F)(F)O3", "system": "Sprague-Dawley rat, male, plasma", "conditions": "intravenous, 5 mg/kg of parent compound", "quantity": "MRT(0-inf)", "value": "26.4 ± 1.2 min"}
{"SMILES": "C=CCN1CC(=O)N2[C@@H](Cc3ccc(O)cc3F)C(=O)N(Cc3cccc(N4CC(N5CCN(CC)CC5)C4)n3)C[C@@H]2N1C(=O)NCc1ccccc1", "system": "advanced solid tumour patients", "conditions": "oral, 15 mg twice daily, any grade, dose-escalation", "quantity": "treatment-related decreased appetite", "value": "0%"}
{"SMILES": "N#Cc1ccc2c(c1)[C@H]1CCCN(C(=O)c3ccc4[nH]cnc4c3)[C@H]1C2", "system": "human", "conditions": "360 mg, day 7", "scale": "reference: baseline", "quantity": "cortisol level change", "value": "-105 nmol/L"}
{"SMILES": "CC(C)[C@@H](CS(=O)(=O)C(C)C)N1C(=O)[C@@](C)(CC(=O)O)C[C@H](c2cccc(Cl)c2)[C@H]1c1ccc(Cl)cc1", "system": "FVB mouse, wild type, plasma", "conditions": "oral, 20 mg/kg", "quantity": "AUC(0-inf)", "value": "3970 ± 665 ng·h/mL"}
{"SMILES": "CC1(CNC(=O)[C@H](CN)NC(=O)c2ccc(C#Cc3ccccc3)cc2)NC(=O)NC1=O (stereo partly shown)", "system": "aqueous buffer", "conditions": "pH 7.4", "quantity": "solubility", "value": "470 µg/mL"}
{"SMILES": "Cc1cc([C@H]2C[C@H]3[C@@H](CF)SC(N)=N[C@@]3(c3ccc(F)cc3F)CO2)on1", "system": "129/SVE wild-type mouse, male", "conditions": "subcutaneous, 100 mg/kg, 5 h", "quantity": "CSF concentration", "value": "75 nM"}
{"SMILES": "O=C(COc1ccc(Cl)cc1)NC12CC(c3nnc([C@H]4C[C@@H](OC(F)(F)F)C4)o3)(C1)C2", "test": "abnormal haematology test", "system": "human, both sexes", "conditions": "oral, dose not given, single ascending dose, fasted, all doses", "scale": "reference: subjects", "quantity": "treatment-emergent adverse events", "value": "5.6%"}
{"SMILES": "CCOC(=O)N1C[C@@H](c2ccc(Cl)cc2)N[C@@H](c2ccc(-c3ccccc3)cc2)C1", "test": "shake-flask, LC-HRMS", "system": "aqueous buffer", "conditions": "16 h, pH 6.8", "quantity": "solubility", "value": "< 4 µM"}
{"SMILES": "COC(=O)c1ccccc1-c1c2ccc(=O)cc-2oc2c1ccc1cccc(N(C)C)c12", "system": "aqueous HCl 10% DMSO", "conditions": "pH 1.9", "quantity": "Stokes shift", "value": "100 nm"}
{"SMILES": "CCN1CCN(Cc2ccc(NC(=O)c3ccc(C)c(NC(=O)c4cncc(-c5cccs5)c4)c3)cc2C(F)(F)F)CC1", "test": "LC-MS/MS", "system": "C57BL/6 mouse, plasma", "conditions": "intraperitoneal, 30 mg/kg single dose, 2 h", "quantity": "plasma concentration", "value": "426 ng/mL and 454 ng/mL and 607 ng/mL"}
{"SMILES": "Cc1ccc([C@@H]2O[C@H](CO)[C@@H](O)[C@H](O)[C@H]2O)cc1Cc1ccc(-c2ccc(F)cc2)s1", "system": "Japanese type 2 diabetes patients", "conditions": "100 mg, day 4, 24 h urine collection", "scale": "reference: baseline", "quantity": "urinary calcium excretion change", "value": "-4.12 mg"}
{"SMILES": "CCOc1c([C@H](C)n2nc(C)c3c(N)ncnc32)cc(Cl)c(F)c1[C@@H]1CNC(=O)C1", "test": "item: ΔQTcF ≤ 30 ms", "system": "previously treated B-cell malignancy", "conditions": "oral, 45 mg once daily, baseline QTcF ≤450 ms", "quantity": "share of ECG observations", "value": "100%"}
{"SMILES": "Cn1cc([C@@H]2COC[C@]3(CC[C@H](c4ccccc4)CC3)N2)cn1", "test": "shake-flask, LC-HRMS", "system": "aqueous buffer", "conditions": "16 h, pH 6.8", "quantity": "solubility", "value": "> 750 µM"}
{"SMILES": "CN(C)C(=N)N=C(N)N", "test": "item: thirst", "system": "healthy men", "conditions": "oral, dose not given, 8 days, treatment-emergent, crossover trial", "quantity": "subjects with adverse event", "value": "0%"}
{"SMILES": "CCOC(=O)N1C[C@@H](c2ccc(Cl)cc2)N[C@@H](c2cc(Cl)cc(Cl)c2)C1", "test": "shake-flask, LC-HRMS", "system": "aqueous buffer", "conditions": "16 h, pH 6.8", "quantity": "solubility", "value": "< 4 µM"}
{"SMILES": "Cn1cc(Nc2nc(N)nc(-c3cccc(-n4ccc5cc(C6CC6)cc(F)c5c4=O)c3CO)n2)cn1", "system": "healthy subjects", "conditions": "oral, 300 mg tablet, fasted", "quantity": "drug-related vomiting subjects", "value": "0%"}
{"SMILES": "Cc1ccc([C@H]2N[C@@H](c3ccc(Cl)c(Cl)c3)CO[C@@H]2C)cc1", "test": "shake-flask, LC-HRMS", "system": "aqueous buffer", "conditions": "16 h, pH 6.8", "quantity": "solubility", "value": "< 4 µM"}
{"SMILES": "CCc1cc(C(=O)NC)c2nccc(N3CCc4c(cc(Cn5ccnc5)cc4-c4cn(C)nc4C(F)(F)F)C3=O)c2c1", "system": "Sprague Dawley rat", "conditions": "oral, 50 mg/kg once daily, day 5, 7-day toxicology study", "quantity": "body weight", "value": "251 ± 6.3 g"}
{"SMILES": "CCCC1CCC(c2ccc(OCC)c(F)c2F)CC1 (stereo not shown)", "system": "rat, placenta", "conditions": "5000 ng/mL in perfusate, high dose, mixture of 21 LCMs", "quantity": "placental accumulation", "value": "454 ± 687 ng/g"}
{"SMILES": "O=C(Nc1nc2cccc(-c3ccc(CN4CCS(=O)(=O)CC4)cc3)n2n1)C1CC1", "test": "item: non-infective cystitis", "system": "rheumatoid arthritis patients", "conditions": "oral, 30 mg once daily, 4 weeks, any relatedness", "quantity": "treatment-emergent adverse events", "value": "0%"}
{"SMILES": "COc1cc2nccc(Oc3ccc(NC(=O)c4cc5c(n(-c6ccccc6)c4=O)CCCC5=O)nc3)c2cc1OC", "system": "relapsed or refractory AML", "conditions": "oral, 10 mg once daily", "quantity": "grade ≥3 Leucocytosis patients", "value": "14.3%"}
{"SMILES": "COc1ccc([C@@H](O)c2cc(-c3ncnc4cc(N5CCOCC5)ccc34)c(F)cc2Cl)nn1", "system": "locally advanced rectal cancer", "conditions": "all dose levels overall, together with: capecitabine and radiotherapy", "quantity": "TEAE, decreased appetite", "value": "32%"}
{"SMILES": "COCCOc1cnc2ccn([C@H](C)c3nnc4c(F)cc(-c5cnn(C)c5)cn34)c(=O)c2c1", "system": "patients, plasma", "conditions": "oral, 400 mg once daily, day 1", "quantity": "Cmax", "value": "3310 ng/mL"}
{"SMILES": "O=C(Nc1ccc(OC(F)(F)Cl)cc1)c1cnc(N2CC[C@@H](O)C2)c(-c2ccn[nH]2)c1", "test": "item: ALT increase, grade ≥2", "system": "human patients, dose-finding study", "conditions": "oral, sample A of sample B patients", "quantity": "patients with event", "value": "7.1%"}
{"SMILES": "O=c1[nH]c(=O)n([C@H]2C[C@H](O)[C@@H](CO)O2)cc1CCCCC[18F]", "system": "male CD-1 nu/nu mice, RG2 tumour, heart", "conditions": "intravenous, dose not given, 2 h", "quantity": "biodistribution", "value": "0.14 ± 0.02 %ID/g"}
{"SMILES": "Cc1cc(-c2nccc3c2ccn3CC(=O)Nc2ccc(-c3cnccn3)cn2)ccn1", "system": "human", "conditions": "MAD part, 5 mg once daily", "quantity": "subjects with any grade 3 TEAE", "value": "0%"}
{"SMILES": "Cc1ccc(Sc2ccccc2N2CCNCC2)c(C)c1", "test": "item: any TEAE", "system": "healthy adult men", "conditions": "oral, 20 mg daily, 12 days", "quantity": "participants with TEAE", "value": "33.3%"}
{"SMILES": "O=c1[nH]c(=O)n([C@H]2C[C@H](O)[C@@H](CO)O2)cc1CCCC[18F]", "system": "male CD-1 nu/nu mice, RG2 tumour, bone", "conditions": "intravenous, dose not given, 2 h", "quantity": "biodistribution", "value": "0.62 ± 0.1 %ID/g"}
{"SMILES": "Cc1c(C(=O)O)ccc2c3n(nc12)[C@@H]1[C@H](C3)N(CC2CC2)[C@@]2(C(=O)Nc3cc(Cl)ccc32)[C@H]1c1cccc(Cl)c1F", "system": "human patients phase Ia", "conditions": "oral, dose not given, grade ≥3, all patients", "quantity": "decreased WBC count incidence", "value": "13%"}
{"SMILES": "O=C1CC[C@H](N2Cc3cc(N4CCN(CC5CCN(c6ccc([C@@H]7c8ccc(O)cc8CC[C@@H]7c7ccccc7)cc6)CC5)CC4)ccc3C2=O)C(=O)N1", "test": "item: Diarrhea", "system": "human", "conditions": "oral, 200 mg, together with: dabigatran etexilate 75 mg", "quantity": "participants with adverse event", "value": "0%"}
{"SMILES": "Cl.[2H]C([2H])([2H])CC(=O)c1cnc(NC(=O)C2CC2)cc1Nc1cccc(-c2ncn(C([2H])([2H])[2H])n2)c1OC", "test": "geometric mean", "system": "human", "conditions": "oral, 20 mg once daily, day 1, fasted, liquid, multiple dose", "quantity": "AUC(0-inf)", "value": "1220 ng·h/mL"}
